# Experimental data of several laboratories.
# Every numbered part comes from another study and shows a few of its results, in no order.
# Sequence of UniProt P47898 (whole entry, looked up): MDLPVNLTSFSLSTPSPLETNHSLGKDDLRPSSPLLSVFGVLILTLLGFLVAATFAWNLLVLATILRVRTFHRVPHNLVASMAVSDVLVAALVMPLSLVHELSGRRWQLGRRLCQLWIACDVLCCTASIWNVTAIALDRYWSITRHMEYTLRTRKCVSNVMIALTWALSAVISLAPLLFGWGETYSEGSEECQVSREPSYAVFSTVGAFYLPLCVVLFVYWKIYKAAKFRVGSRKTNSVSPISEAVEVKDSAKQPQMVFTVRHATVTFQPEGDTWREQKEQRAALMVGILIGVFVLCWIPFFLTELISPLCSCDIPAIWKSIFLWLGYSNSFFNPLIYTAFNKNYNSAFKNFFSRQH
# Sequence of UniProt Q16832 (whole entry, looked up): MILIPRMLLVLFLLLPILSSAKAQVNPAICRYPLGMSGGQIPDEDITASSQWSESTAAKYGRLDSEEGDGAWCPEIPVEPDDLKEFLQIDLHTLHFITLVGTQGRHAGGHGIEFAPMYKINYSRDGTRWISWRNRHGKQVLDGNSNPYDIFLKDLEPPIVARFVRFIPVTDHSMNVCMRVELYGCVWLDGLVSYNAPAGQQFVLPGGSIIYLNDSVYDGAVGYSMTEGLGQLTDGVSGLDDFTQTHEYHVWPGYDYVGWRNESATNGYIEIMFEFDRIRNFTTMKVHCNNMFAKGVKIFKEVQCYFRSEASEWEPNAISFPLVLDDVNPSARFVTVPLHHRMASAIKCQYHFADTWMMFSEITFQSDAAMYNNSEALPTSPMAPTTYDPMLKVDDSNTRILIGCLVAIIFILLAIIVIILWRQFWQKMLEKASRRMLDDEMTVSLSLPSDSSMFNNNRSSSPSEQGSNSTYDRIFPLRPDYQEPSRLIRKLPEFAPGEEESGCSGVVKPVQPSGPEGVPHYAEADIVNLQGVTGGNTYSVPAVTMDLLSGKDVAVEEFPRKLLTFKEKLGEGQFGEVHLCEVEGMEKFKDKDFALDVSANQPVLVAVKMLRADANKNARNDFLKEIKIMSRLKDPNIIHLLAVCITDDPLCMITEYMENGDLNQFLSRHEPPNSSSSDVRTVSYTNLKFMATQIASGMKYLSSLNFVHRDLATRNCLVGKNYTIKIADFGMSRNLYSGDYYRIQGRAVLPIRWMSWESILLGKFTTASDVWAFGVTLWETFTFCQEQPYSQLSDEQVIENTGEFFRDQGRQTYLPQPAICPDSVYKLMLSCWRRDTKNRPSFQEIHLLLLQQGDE
# Sequence of UniProt Q15208 (whole entry, looked up): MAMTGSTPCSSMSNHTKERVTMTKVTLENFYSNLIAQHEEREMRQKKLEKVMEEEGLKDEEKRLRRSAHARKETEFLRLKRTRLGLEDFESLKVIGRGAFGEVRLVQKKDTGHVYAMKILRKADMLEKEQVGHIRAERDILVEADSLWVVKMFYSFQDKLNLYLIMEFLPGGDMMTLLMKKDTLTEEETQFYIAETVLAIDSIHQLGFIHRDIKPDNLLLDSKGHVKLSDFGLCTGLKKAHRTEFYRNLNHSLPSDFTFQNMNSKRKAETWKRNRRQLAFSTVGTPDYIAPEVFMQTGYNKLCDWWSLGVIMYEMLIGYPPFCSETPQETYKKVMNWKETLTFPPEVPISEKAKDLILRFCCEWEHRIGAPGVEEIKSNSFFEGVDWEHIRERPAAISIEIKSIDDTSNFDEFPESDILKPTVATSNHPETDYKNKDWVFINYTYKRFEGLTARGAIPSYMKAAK
# Sequence of UniProt P54762 (whole entry, looked up): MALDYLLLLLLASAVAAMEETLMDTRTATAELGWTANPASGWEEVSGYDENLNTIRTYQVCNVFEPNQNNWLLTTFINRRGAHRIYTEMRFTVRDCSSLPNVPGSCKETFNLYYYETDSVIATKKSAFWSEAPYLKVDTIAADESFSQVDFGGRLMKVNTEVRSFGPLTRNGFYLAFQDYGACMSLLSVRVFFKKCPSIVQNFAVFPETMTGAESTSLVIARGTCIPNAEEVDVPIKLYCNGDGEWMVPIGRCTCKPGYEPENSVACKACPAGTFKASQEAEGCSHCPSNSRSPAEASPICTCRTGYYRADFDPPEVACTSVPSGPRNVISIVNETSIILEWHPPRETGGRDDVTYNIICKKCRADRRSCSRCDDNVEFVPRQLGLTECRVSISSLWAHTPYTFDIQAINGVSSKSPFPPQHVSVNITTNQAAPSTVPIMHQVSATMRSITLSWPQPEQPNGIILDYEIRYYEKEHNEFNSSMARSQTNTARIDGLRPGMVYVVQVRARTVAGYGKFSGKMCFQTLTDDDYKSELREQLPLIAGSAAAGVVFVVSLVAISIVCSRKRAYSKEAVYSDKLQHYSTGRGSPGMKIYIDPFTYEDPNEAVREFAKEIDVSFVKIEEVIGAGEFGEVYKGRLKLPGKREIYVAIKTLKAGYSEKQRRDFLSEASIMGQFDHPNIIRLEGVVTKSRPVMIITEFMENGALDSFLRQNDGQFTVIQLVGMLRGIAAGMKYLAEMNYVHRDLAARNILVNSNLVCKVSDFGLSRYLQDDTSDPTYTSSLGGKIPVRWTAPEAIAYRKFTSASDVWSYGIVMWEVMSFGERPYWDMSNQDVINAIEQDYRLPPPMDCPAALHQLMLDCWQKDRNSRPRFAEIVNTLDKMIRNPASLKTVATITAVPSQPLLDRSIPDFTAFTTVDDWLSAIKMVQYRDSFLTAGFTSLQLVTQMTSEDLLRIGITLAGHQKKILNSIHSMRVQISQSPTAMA
# Sequence of UniProt O43293 (whole entry, looked up): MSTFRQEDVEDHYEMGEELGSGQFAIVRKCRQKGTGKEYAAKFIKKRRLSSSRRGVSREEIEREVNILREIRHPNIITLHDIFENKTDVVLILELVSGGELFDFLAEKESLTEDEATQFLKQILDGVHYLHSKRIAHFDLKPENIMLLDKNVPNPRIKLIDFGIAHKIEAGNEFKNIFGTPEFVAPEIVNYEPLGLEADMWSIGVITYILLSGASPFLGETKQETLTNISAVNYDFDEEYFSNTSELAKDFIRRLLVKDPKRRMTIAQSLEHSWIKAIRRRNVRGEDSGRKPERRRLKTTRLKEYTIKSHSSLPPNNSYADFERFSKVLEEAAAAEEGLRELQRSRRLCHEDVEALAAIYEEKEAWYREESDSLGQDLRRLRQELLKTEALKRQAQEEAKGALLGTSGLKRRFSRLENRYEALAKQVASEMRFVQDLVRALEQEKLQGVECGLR
# Sequence of UniProt Q13705 (whole entry, looked up): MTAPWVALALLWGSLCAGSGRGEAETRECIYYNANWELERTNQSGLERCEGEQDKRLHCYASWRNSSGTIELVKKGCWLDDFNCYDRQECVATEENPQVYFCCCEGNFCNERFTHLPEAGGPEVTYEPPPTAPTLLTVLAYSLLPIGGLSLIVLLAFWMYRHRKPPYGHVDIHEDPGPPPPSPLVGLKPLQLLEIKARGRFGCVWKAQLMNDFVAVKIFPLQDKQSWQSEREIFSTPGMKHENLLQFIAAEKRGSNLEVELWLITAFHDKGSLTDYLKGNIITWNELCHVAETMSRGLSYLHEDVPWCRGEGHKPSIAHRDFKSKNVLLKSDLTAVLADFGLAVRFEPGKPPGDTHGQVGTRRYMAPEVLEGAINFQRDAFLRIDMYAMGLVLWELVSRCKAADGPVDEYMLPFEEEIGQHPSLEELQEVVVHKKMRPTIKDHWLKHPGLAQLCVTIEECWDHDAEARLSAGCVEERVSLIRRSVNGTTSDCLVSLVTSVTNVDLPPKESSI
# Sequence of UniProt Q12852 (whole entry, looked up): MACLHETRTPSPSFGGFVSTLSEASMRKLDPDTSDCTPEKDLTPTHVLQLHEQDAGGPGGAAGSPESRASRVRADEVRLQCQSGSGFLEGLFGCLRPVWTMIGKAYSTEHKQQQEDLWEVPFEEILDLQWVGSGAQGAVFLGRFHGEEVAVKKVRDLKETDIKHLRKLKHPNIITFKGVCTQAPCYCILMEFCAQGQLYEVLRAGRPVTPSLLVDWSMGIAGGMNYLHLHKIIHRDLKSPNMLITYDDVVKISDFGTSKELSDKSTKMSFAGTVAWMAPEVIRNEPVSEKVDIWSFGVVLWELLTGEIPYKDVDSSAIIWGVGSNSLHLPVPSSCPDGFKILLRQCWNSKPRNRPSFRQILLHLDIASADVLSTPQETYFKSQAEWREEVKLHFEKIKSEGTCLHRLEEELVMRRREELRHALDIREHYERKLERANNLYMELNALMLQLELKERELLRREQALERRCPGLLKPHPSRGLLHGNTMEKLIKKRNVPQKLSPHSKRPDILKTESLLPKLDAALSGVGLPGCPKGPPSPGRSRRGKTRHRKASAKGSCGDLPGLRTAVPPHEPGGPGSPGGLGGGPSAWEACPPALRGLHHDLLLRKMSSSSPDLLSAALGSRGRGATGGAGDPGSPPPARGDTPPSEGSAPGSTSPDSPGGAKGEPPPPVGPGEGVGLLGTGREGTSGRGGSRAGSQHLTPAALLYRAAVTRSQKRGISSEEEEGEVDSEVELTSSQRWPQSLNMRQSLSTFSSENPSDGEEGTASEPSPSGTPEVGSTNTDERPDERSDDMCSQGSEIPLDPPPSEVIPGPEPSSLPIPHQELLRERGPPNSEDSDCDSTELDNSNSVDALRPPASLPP

# Block 1
# SMILES: COc1cc(/C=C(\C#N)C(=O)c2ccc(O)c(O)c2)cc(I)c1O
# Action: inhibitor
# Tested at: 5 µM
target,test,system,setting,scale,log2 fold change
"MAP3K12 (Homo sapiens, UniProt Q12852)",cell-based kinome screen,human cells,,baseline: untreated control,0.397
"DAPK3 (Homo sapiens, UniProt O43293)",,human cells,,baseline: vehicle,-0.026
"PRKCE (Homo sapiens, UniProt Q02156)",cell-based kinome screen,human cells,,baseline: untreated control,0.504
"TNNI3K (Homo sapiens, UniProt Q59H18)",kinase activity,,cell-based kinome screen,baseline: vehicle,-0.495
"ACVR2B (Homo sapiens, UniProt Q13705)",cell-based kinome profiling,human cells,,baseline: vehicle control,-0.083
kinase–CDC37 interaction,kinase–CDC37 binding,human cells,oncogenic TPM3-ALK fusion,baseline: vehicle,0.207
"STK38 (Homo sapiens, UniProt Q15208)",kinase-CDC37 interaction,human cells,,baseline: vehicle,0.09
BCR-ABL human,kinase-CDC37 interaction,human cells,,baseline: vehicle,-0.244
"PRKCQ (Homo sapiens, UniProt Q04759)",cell-based kinome screen,human cells,,baseline: untreated control,-0.087
"BRAF (Homo sapiens, UniProt P15056, G466V)",cell-based kinome profiling,human cells,,baseline: vehicle control,-0.007

# Block 2
# Cell line: A-375
# Tested at: 100 µM
# Time: 18 h
SMILES,viability [%]
C[C@H]1COc2c(N3CCN(C)CC3)c(F)cc3c(=O)c(C(=O)O)cn1c23,74.7
CC[C@H](C)C(=O)O[C@H]1C[C@@H](C)C=C2C=C[C@H](C)[C@H](CC[C@@H]3C[C@@H](O)CC(=O)O3)[C@H]21,78.7
COc1cc([C@@H]2c3cc4c(cc3[C@@H](O[C@@H]3O[C@@H]5CO[C@@H](C)O[C@H]5[C@H](O)[C@H]3O)[C@H]3COC(=O)[C@H]23)OCO4)cc(OC)c1O,81.5
COC(=O)Nc1nc2ccc(Sc3ccccc3)cc2[nH]1,51.2
O=c1cc(-c2ccc(O)c(O)c2)oc2cc(O)cc(O)c12,82.8
O=C(O)CCn1c2c(c3ccccc31)C[C@H](NS(=O)(=O)c1ccc(F)cc1)CC2,107
OC[C@H]1O[C@@H](O[C@@H]2[C@@H](CO)OC(O)(CO)[C@H]2O)[C@H](O)[C@@H](O)[C@H]1O (mixture of isomers),103
CCN1CCCC1CNC(=O)c1cc(S(N)(=O)=O)ccc1OC (centres unmarked),99.9

# Block 3
# Compound: O=C(Nc1cnn(-c2csc(C(=O)NC3COC3)c2)c1)Nc1c(F)cccc1Cl
# Effect on: enzyme activity
# Tested at: 5 µM
target,action,baseline,remaining activity
"Cyclin-dependent kinase 18, with cyclin Y (CDK18, Homo sapiens, UniProt Q07002)",inhibitor,,91.9%
"MAP3K6 (Homo sapiens, UniProt O95382)",inhibitor,,92.5%
"NTRK3 (Homo sapiens, UniProt Q16288)",,untreated control,36.5%
"RPS6KA6 (Homo sapiens, UniProt Q9UK32)",,untreated control,91.3%
"CDC42BPB (Homo sapiens, UniProt Q9Y5S2)",,untreated control,84.4%
"MST1R (Homo sapiens, UniProt Q04912)",,untreated control,96.9%
"SRC (Homo sapiens, UniProt P12931)",,untreated control,97.6%
"EPHB1 (Homo sapiens, UniProt P54762)",,untreated control,92.9%
"GRK3 (Homo sapiens, UniProt P35626)",,untreated control,100%
"DDR2 (Homo sapiens, UniProt Q16832)",,untreated control,94.1%
"ACVR1 (Homo sapiens, UniProt Q04771)",,untreated control,95%
"CLK2 (Homo sapiens, UniProt P49760)",,untreated control,112%
"VRK1 (Homo sapiens, UniProt Q99986)",,untreated control,91.1%

# Mixed results
SMILES,target,effect on,tested at,endpoint,result
CN([C@@H]1CCc2c(CC(=O)O)c3cc(S(C)(=O)=O)ccc3n2C1)S(=O)(=O)c1ccc(F)cc1,"5-hydroxytryptamine receptor 5A (HTR5A, Homo sapiens, UniProt P47898)",ligand displacement,10 µM,inhibition,-1.56%

# Repeated from above (block 2):
SMILES,viability [%]
COc1cc([C@@H]2c3cc4c(cc3[C@@H](O[C@@H]3O[C@@H]5CO[C@@H](C)O[C@H]5[C@H](O)[C@H]3O)[C@H]3COC(=O)[C@H]23)OCO4)cc(OC)c1O,81.5
COC(=O)Nc1nc2ccc(Sc3ccccc3)cc2[nH]1,51.2
